Measured values of several laboratories.
± gives the spread as reported.
U2AF2: U2AF2 148-342 (Homo sapiens, UniProt P26368)
UniProt P26368, sequence (whole entry, looked up): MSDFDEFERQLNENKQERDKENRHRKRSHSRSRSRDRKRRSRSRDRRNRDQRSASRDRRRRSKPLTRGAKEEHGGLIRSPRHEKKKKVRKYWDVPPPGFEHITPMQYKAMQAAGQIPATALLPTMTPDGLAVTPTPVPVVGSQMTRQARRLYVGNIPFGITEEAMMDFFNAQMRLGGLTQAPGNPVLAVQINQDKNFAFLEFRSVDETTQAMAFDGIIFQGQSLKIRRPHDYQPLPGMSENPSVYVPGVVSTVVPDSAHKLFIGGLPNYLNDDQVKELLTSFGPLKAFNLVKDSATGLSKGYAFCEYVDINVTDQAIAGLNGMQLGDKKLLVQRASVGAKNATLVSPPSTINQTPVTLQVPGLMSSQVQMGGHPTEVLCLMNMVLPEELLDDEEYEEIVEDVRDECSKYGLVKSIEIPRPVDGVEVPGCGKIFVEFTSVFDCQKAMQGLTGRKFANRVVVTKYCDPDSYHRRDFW
B1: enzyme (Methylibium petroleiphilum, UniProt A2SI32); chain PFAQIYLIEGRTEEQKRAVIEKVTQAMMEAVGAPKENVRVWIHDVPKENWGIGGVSAKALGR
B2: SCO6712 S292F/Y229F (Streptomyces coelicolor, UniProt Q9XAL8); chain AKGITARTAPAGGEVRHLKMYAEKLADGQMGYGFEKGKASVPGPLIEVNEGDTLHIEFTNTMDVRASLHVHGLDYEISSDGTAMNKSDVEPGGTRTYTWRTHKPGRRDDGTWRPGSAGYWHYHDHVVGTEHGTGGIRNGLYGPVIVRRKGDVLPDATHTIVFNDMTINNRKPHTGPDFEATVGDRVEIVMITHGEFYHTFHMHGHRWADNRTGILTGPDDPSRVIDNKITGPADSFGFQIIAGEGVGAGAWMYHCHVQFHSDMGMVGLFLVKKPDGTIPGYEPHEHGGATAKSGESGEPTGGAAAHEHEH
B3: enzyme (Enterococcus faecium, UniProt A0A132Z3A5); chain MAKELKFAEDARAAMLRGVDKLADTVKVTLGPKGRNVVLEKSYGSPLITNDGVTIAKEIELEDHFENMGAKLVSEVASKTNDIAGDGTTTATVLTQAIVREGLKNVTAGANPLGIRRGIELATKAAVEELHNISTVVDSKEAIAQVAAVSSGSDKVGHLIADAMEKVGNDGVITIEESKGIETELDVVEGMQFDRGYLSQYMVTDNDKMEAVLENPYILITDKKISNIQDILPLLEQILQQSRPLLIIADDVDGEALPTLVLNKIRGTFNVVAVKAPGFGDRRKAMLEDIAILTGGTVITDDLGLELKDVTIENLGNASKVVVDKDNTTIVEGSGEKEAIEARVQLIKNQIAETTSDFDREKLQERLAKLAGGVAVVKVGAATETELKELKLRIEDALNATRAAVEEGMVSGGGTALVNVISKVSAVEAEGDVATGIKIVVRALEEPIRQIAENAGYEGSVIVDKLKNVELGTGFNAATGEWVNMVEAGIVDPTKVTRSALQNAASVSALLLTTEAVVADKPEPAAPAAPAMDPSMMGGMM
B4: enzyme D25A (Nitrosopumilus maritimus, UniProt A9A5X4); chain MDSQKFDSIIFDCDGVLVDITQSYAKTIDKTCRYVLKEFAKIDSITIDHKIIDGFKSSGGFNDEVDLVYAAILSLYTANKLNKKPSEFIYDVISNTDKTGIRSVQSYLESIYDVSEFLSKLGSLGDRHNNPVYSIFDQFFFGPELYGKLFDKQSKFSEEGMISNDKVILSVSLLETLQKEFGKKIAVVTGRGIESIRYSLKDMMDYFDTKNSAFLEDEPRELAKPNPATLIRAIQSMESKNCLYVGDSMEDYMMAKDAAQAGHSTTFCAIVGTSTNPEDRRKLFADSGVEMILESINDIPKVLNLV
B5: enzyme (Chlamydomonas reinhardtii, UniProt A0A2K3D977); chain ASDSVLAVWRKADAVCFDVDCTITVNDSLDLLAEFMGVKEQVEILTNKAMDGSLSLEQALEERLNIINCSPDDIKRFIKAHPPASRMAPGIKELINSLQARGKAIYLISGGFRELTLPIAAYLGIPKENVFANRMNWQWDDETGMPTKLVGFDMSEPTAHNQGKPQAIARIRQRNPYNTVVMIGDGITDLEAVQTTGGADLFIGSGVVVERPAVAREADWYVYDYTDLLRTMARYSVAMVGSGAWACAAVRMIAQNTQVDDAADEFVDEVRMWVYEEDFEGKKLTEVINQTHTNPKYFPGFDLGPNVVAVPNIVDAVADADLIVFCAPHQFLHHICKQLVGKIKPGAAAISLTKGMRVRPEGPQLISQMVRRLLGIDCCVLMGANIATDIGREQLSEAVIGYDNLDAATLFQKIFQRPYFRVNLLPDPVGAEMCGTLKNIVALGAGMVDGLGLGPNSKAAIIRQGLVEMRAFSKALYPSVRDDTFMESCGVGDLVATCYGGRNRLVACEWTKAQMEGKPRTFEDLETDLLKGQKLQGVLTSNEVQEILKVRGWESQYPLFTTVNRIINGYLPPKYVVEFVAGAKYHIRRPGTDDEEIVPVRPKRPAAAGGVATAPILAA
B6: enzyme (UniProt A0A097IUE6); chain TKRAMMATVSSLGIDKATGITKPSKVHRNLPYPEVFEHEQKNKEGEVTKNGTFCVSTGAFTGRSPKDKYFVHQSPSCDTLDWGKINVGVAPDVYKNIYEKAVKHYNENVDSMYVFDGYCGTSPKSRKNVRIITELAWQHHFAKNMFIRPDSEKEVENFNPDFTIINACKVLNKDYKELGLNSDVAVIFNVEEKMAVITGTWYGGEMKKGIFSMMNYWLPLDGIMAMHCSANKGKGGDTALFFGLSGTGKTTLSADPDRYLIGDDEHGWDDHGIFNFEGGCYAKTVNLSKDNEPEIYDAIKRDALLENVIIKSDGEPDYTDTSRTENTRVSYPIYHIDNHEPSGMGGHPTSIIFLTCDAFGVLPPVSRLSGGQAMYHFLSGYTAKVAGTERGVTEPTPNFSACFGAAFLTLHPTKYADLLQKKLDKHQTQCFLINTGWTGGGYGVGKRMSIKATRACVNAVLDGSINKANFTNDEVFGFEVPAELPEVPAQVLNPRAAWSDKEKYDNTRIKLAGMFKDNFKKFIKEGATDYSSYGPK
B7: aspC A106G/A218G/F210I/I29V/I33V/I68L/I71L/N30D/N64T/S135A/T100S/V136I/V375I (Escherichia coli, UniProt P00509); chain MFENITAAPADPILGLADLFRADERPGKVDLGVGVYKDETGKTPVLTSVKKAEQYLLENETTKTYLGLDGLPEFGRCTQELLFGKGSALINDKRARTAQSPGGTGGLRVAADFLAKNTSVKRVWVSNPSWPNHKAIFNSAGLEVREYAYYDAENHTLDFDALINSLNEAQAGDVVLFHGCCHNPTGIDPTLEQWQTLAQLSVEKGWLPLIDFAYQGFGRGLEEDAEGLRAFAAMHKELIVASSYSKNFGLYNERVGACTLVAADSETVDRAFSQMKAAIRANYSNPPAHGASVVATILSNDALRAIWEQELTDMRQRIQRMRQLFVNTLQEKGANRDFSFIIKQNGMFSFSGLTKEQVLRLREEFGVYAVASGRINVAGMTPDNMAPLCEAIVAVL
B8: enzyme C429A (Methanosarcina mazei, UniProt Q8PVB1); chain MSEQRSVPLREHLLALKPCRHGGLIQETSETYGIPENEILDFSANFNPLGSPFDYPENGLNFEDIIKKSCGKLLEYPDNRYVEFREAAARFVGLGVTPQSIVPGNGSTEIVRLVVESVIEKGDKVLLPWPTFGEYEMQCRITGAEPVCPSQEEVNTLPDEVLEEAKILFICNPNNPTGKLRTREELKVLAERCREHKTLLYVDEAFIELSDPSQSVADLPAENNYVFVMRSLTKDFAIPGIRMGFGIAPPAMADILNTARLSWNLGAIANNTGIALLNIEGGIDSPYLKKAREMILKEGETLKAKIDRIRGFEAGEVNVNFILVDVSKFMLNSSELTARLAARGVLVRDCVSFHGLGKNYIRVAVRTEKENDRLIAAIGDVITEWGREQAKNELQHVIEKASEEGIGGRKTCEYYPCHFEGQNCTFCFAPFYPCENEKTGGKWIQSSRGGRVWSCVDCHLVHKKEIAQKILDCLMHEGDTDELVKVAWKEVMEPIL
B9: efeB (Bacillus subtilis, UniProt P39597); chain IGASGLGGLAPLVQTAAKPSKKDEKEEEQIVPFYGKHQAGITTAHQTYVYFAALDVTAKDKSDIITLFRNWTSLTQMLTSGKKMSAEQRNQYLPPQDTGESADLSPSNLTVTFGFGPGFFEKDGKDRFGLKSKKPKHLAALPAMPNDNLDEKQGGGDICIQVCADDEQVAFHALRNLLNQAVGTCEVRFVNKGFLSGGKNGETPRNLFGFKDGTGNQSTKDDTLMNSIVWIQSGEPDWMTGGTYMAFRKIKMFLEVWDRSSLKDQEDTFGRRKSSGAPFGQKKETDPVKLNQIPSNSHVSLAKSTGKQILRRAFSYTEGLDPKTGYMDAGLLFISFQKNPDNQFIPMLKALSAKDALNEYTQTIGSALYACPGGCKKGEYIAQRLLES
UniProt P78804, sequence (whole entry, looked up): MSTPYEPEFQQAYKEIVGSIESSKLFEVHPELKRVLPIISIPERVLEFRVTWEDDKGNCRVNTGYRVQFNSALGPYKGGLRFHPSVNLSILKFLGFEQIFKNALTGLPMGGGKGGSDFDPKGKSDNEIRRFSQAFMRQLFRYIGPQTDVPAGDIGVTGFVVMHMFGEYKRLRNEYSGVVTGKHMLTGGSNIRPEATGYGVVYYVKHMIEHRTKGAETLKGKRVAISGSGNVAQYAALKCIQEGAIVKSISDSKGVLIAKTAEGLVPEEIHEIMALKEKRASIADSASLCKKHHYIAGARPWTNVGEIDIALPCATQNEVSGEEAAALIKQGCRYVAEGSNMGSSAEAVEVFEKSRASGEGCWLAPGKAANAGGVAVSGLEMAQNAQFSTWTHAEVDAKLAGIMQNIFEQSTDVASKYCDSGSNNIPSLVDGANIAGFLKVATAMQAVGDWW

Molecule	target or system	test	test system	setting	how to read	measurement	result
UUUACACUA (ssRNA)	U2AF2	sequencing of bound RNA	RNA	motif only		Kd	11 µM
B1 (enzyme)	C/C(=C\C=C(/O)C(=O)O)C(=O)O	steady-state kinetics		pH 7.3, 24 °C		kcat/Km	1e+06 M⁻¹ s⁻¹
B2 (SCO6712 S292F/Y229F)	CCn1c(=NN=c2sc3cc(S(=O)(=O)O)ccc3n2CC)sc2cc(S(=O)(=O)O)ccc21	steady-state kinetics		pH 7, 37 °C, NaCl 150 mM, with: O2 cosubstrate		kcat/Km	1900 ± 300 M⁻¹ s⁻¹
enzyme (Schizosaccharomyces pombe, UniProt P78804)	NC(=O)c1ccc[n+]([C@@H]2O[C@H](COP(=O)(O)OP(=O)(O)OC[C@H]3O[C@@H](n4cnc5c(N)ncnc54)[C@H](OP(=O)(O)O)[C@@H]3O)[C@@H](O)[C@H]2O)c1	steady-state kinetics		pH 7, 30 °C, apparent		kcat/Km	330000 ± 30000 M⁻¹ s⁻¹
GMP synthase (human)	CYB5R4 knockout human cells	PP4 interaction, 3xFLAG-PP4C IP-MS		concentration not given	baseline: CYB5R4 KO over parental	log2 fold change	1.19
gdh E198C (Bacillus subtilis)	NC(=O)c1ccc[n+]([C@@H]2O[C@H](COP(=O)(O)OP(=O)(O)OC[C@H]3O[C@@H](n4cnc5c(N)ncnc54)[C@H](O)[C@@H]3O)[C@@H](O)[C@H]2O)c1	steady-state kinetics		pH 8, 45 °C		kcat/Km	21500 ± 1500 M⁻¹ s⁻¹
B3 (enzyme)	Nc1ncnc2c1ncn2[C@@H]1O[C@H](COP(=O)(O)OP(=O)(O)OP(=O)(O)O)[C@@H](O)[C@H]1O	steady-state kinetics		pH 7.4, 24 °C, apparent, per site		kcat/Km	1890 M⁻¹ s⁻¹
enzyme Y41F (Homo sapiens, UniProt Q08623)	O=c1[nH]cc([C@@H]2O[C@H](COP(=O)(O)O)[C@@H](O)[C@H]2O)c(=O)[nH]1	steady-state kinetics		pH 7, 25 °C		kcat/Km	600000 M⁻¹ s⁻¹
B4 (enzyme D25A)	N[C@H](COP(=O)(O)O)Cc1c[nH]cn1	steady-state kinetics		pH 7.8, 25 °C		kcat/Km	49 ± 3 M⁻¹ s⁻¹
enzyme (Oryza sativa, UniProt Q6ZGQ4)	O=[N+]([O-])c1ccc(O[C@@H]2O[C@@H](CO)[C@H](O)[C@H]2O)cc1	steady-state kinetics		pH 4, 40 °C, apparent		kcat/Km	6.1 M⁻¹ s⁻¹
acsA D449E (Pseudomonas chlororaphis)	C#CCCC(=O)O	steady-state kinetics		pH 7		kcat/Km	183 ± 33.3 M⁻¹ s⁻¹
GCCAUGAUU (ssRNA)	U2AF2	sequencing of bound RNA	RNA	motif only		Kd	4.19 µM
B5 (enzyme)	O=C(CO)COP(=O)(O)O	steady-state kinetics		pH 7.5, with: NADH 500 µM		kcat/Km	300000 ± 60000 M⁻¹ s⁻¹
enzyme N248Y/R246H (Arabidopsis thaliana, UniProt O24495)	C[C@@H](O)C(=O)SC[C@H](NC(=O)CC[C@H](N)C(=O)O)C(=O)NCC(=O)O	steady-state kinetics		pH 7.2, 25 °C		kcat/Km	7000 ± 5000 M⁻¹ s⁻¹
B6 (enzyme)	O=C(O)O	steady-state kinetics		pH 6.5, 25 °C		kcat/Km	9200 M⁻¹ s⁻¹
B7	N[C@@H](CC(=O)O)C(=O)O	steady-state kinetics		pH 7.5, 25 °C, with: PLP 20 µM		kcat/Km	43000 M⁻¹ s⁻¹
B8 (enzyme C429A)	Nc1ncnc2c1ncn2[C@@H]1O[C@H](COP(=O)(O)OP(=O)(O)OP(=O)(O)O)[C@@H](O)[C@H]1O	steady-state kinetics		pH 8.5, 25 °C, apparent, anoxic, with: L-Thr 10 mM		kcat/Km	1530 ± 31 M⁻¹ s⁻¹
B9 (efeB)	Nc1c(S(=O)(=O)O)cc(Nc2cccc(S(=O)(=O)CCOS(=O)(=O)O)c2)c2c1C(=O)c1ccccc1C2=O	steady-state kinetics		pH 4, 25 °C, apparent		kcat/Km	35000 M⁻¹ s⁻¹

A few entries again:
Molecule	target or system	test	test system	setting	how to read	measurement	result
enzyme Y41F (Homo sapiens, UniProt Q08623)	O=c1[nH]cc([C@@H]2O[C@H](COP(=O)(O)O)[C@@H](O)[C@H]2O)c(=O)[nH]1	steady-state kinetics		pH 7, 25 °C		kcat/Km	600000 M⁻¹ s⁻¹
enzyme (Oryza sativa, UniProt Q6ZGQ4)	O=[N+]([O-])c1ccc(O[C@@H]2O[C@@H](CO)[C@H](O)[C@H]2O)cc1	steady-state kinetics		pH 4, 40 °C, apparent		kcat/Km	6.1 M⁻¹ s⁻¹
enzyme (Schizosaccharomyces pombe, UniProt P78804)	NC(=O)c1ccc[n+]([C@@H]2O[C@H](COP(=O)(O)OP(=O)(O)OC[C@H]3O[C@@H](n4cnc5c(N)ncnc54)[C@H](OP(=O)(O)O)[C@@H]3O)[C@@H](O)[C@H]2O)c1	steady-state kinetics		pH 7, 30 °C, apparent		kcat/Km	330000 ± 30000 M⁻¹ s⁻¹
